Measured values collected from several papers.
Lines come from different studies, so protocols differ. ± marks the error that the study gave.
UCHL1: Ubiquitin carboxyl-terminal hydrolase isozyme L1 (UCHL1, Homo sapiens, UniProt P09936)
Chain of UniProt P09936 (whole entry, looked up): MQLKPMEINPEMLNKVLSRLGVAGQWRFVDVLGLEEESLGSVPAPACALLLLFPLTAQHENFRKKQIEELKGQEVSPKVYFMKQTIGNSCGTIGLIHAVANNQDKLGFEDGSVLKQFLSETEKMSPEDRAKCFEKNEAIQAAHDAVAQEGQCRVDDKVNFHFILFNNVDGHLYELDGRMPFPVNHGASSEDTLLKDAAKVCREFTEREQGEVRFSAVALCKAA
CYP2C8: Cytochrome P450 2C8 (CYP2C8, Homo sapiens, UniProt P10632)
Chain of UniProt P10632 (whole entry, looked up): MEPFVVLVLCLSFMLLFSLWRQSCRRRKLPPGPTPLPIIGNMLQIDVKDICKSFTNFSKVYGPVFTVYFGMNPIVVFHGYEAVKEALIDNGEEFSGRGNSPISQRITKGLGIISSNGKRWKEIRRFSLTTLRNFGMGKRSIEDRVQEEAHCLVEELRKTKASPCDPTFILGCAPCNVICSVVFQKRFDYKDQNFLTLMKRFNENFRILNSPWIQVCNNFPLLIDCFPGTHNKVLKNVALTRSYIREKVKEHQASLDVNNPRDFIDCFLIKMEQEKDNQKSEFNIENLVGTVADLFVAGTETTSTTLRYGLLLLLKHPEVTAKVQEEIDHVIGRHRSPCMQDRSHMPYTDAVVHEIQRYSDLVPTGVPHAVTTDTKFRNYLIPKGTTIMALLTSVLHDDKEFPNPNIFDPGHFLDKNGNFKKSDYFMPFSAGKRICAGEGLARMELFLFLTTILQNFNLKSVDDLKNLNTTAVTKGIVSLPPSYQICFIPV
Chain of UniProt P08684 (whole entry, looked up): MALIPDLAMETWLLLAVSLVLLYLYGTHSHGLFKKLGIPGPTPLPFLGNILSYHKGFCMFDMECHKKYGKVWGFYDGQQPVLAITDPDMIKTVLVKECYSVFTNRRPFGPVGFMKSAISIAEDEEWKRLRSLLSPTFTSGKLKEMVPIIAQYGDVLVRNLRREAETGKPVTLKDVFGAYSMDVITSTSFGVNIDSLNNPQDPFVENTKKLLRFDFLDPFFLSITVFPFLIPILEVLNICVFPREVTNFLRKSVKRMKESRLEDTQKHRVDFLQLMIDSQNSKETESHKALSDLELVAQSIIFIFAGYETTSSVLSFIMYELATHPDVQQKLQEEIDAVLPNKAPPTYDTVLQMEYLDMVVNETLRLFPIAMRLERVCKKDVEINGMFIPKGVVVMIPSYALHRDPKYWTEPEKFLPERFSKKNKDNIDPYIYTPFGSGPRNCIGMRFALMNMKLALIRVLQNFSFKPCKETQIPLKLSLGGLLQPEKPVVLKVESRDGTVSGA
Chain of UniProt Q07794 (whole entry, looked up): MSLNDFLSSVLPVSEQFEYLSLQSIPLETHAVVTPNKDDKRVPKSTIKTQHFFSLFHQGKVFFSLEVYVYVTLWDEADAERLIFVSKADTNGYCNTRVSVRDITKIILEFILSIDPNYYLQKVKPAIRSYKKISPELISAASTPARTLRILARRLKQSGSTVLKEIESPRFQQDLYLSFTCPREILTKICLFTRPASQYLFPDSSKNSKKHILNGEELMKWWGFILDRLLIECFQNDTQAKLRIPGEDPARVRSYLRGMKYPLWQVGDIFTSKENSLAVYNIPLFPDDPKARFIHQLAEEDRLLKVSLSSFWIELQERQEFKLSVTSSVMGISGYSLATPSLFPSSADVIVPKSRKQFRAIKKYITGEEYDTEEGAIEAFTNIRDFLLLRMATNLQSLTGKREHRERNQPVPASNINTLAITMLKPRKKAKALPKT

CCCCCCNc1nc(NC2CCN(C)CC2)c2cc(OC)c(OC)cc2n1
EC50 (Toxoplasma gondii; tachyzoite growth, luciferase; ME49-Fluc, type II): 2.68 µM

CC(NC(=O)C(C#N)=Cc1cc(F)ccc1F)c1ccccc1 (centres unmarked)
labelling (UCHL1; covalent, intact protein LC-MS; 12.5 µM): 27.6%

Cc1cn([C@H]2C[C@H](N=[N+]=[N-])[C@@H](CO)O2)c(=O)[nH]c1=O
selectivity index (HIV-1; MT4, IIIB wild type; relative to: CC50 over EC50): > 183

O=S1(=O)C=C(Cl)c2ccccc21
IC50 (Histone acetyltransferase RTT109, with Vps75 (Saccharomyces cerevisiae, UniProt Q07794); enzyme activity, inhibitor, HTS, CPM-based, dose response): > 125 µM

CCNCc1nc2c(N)nc3ccccc3c2n1CC(C)(C)O
EC50 (Toxoplasma gondii; parasite growth, luciferase reporter; HFF, tachyzoite; 72 h): 30 µM

CCOc1cc(CC(=O)N[C@@H](CC(C)C)c2ccccc2N2CCCCC2)ccc1C(=O)O
geometric mean CL/F (CYP2C8; substrate; human, plasma; 0.5 mg, day 1): 45 L/h

O=C(CCl)Nc1ccc(OS(=O)(=O)C2CC3OC2C(c2ccc(O)cc2)=C3c2ccc(O)cc2)cc1 (centres unmarked)
IC50 (MCF-10A; cell viability; 72 (unit not given)): 15.3 ± 1.93 µM

CCN1/C(=C/C(C)=O)Sc2ccc(F)cc21
mean blood pressure (cynomolgus monkey; oral, 30 mg/kg, 6 h post-dose): 90 ± 3 mmHg

Cn1c(Cn2ccc(C(F)(F)F)c(Oc3cc(Cl)cc(C#N)c3)c2=O)n[nH]c1=O
selectivity index (HIV-1; MT4, IIIB wild type; relative to: CC50 over EC50): > 20000

COc1cccc(NC(=O)C(C#N)=Cc2csnn2)c1
labelling (UCHL1; covalent, intact protein LC-MS; 12.5 µM): 21.1%

CC(=NNC(=O)COc1ccc2c(C)c(Cc3ccccc3)c(=O)oc2c1C)c1ccc(Br)cc1
viability (HPrEC normal prostate epithelial cells; MTT; 6.3 µg/mL, 2% serum): 65.7%

Nc1ccn([C@@H]2CS[C@H](CO)O2)c(=O)n1
selectivity index (HIV-1; MTT; MT4, RT A98G/V106I/V179D/Y181C/G333E mutant; relative to: CC50 over EC50): > 69

Cc1cc(Nc2ncnc3ccc(NC4=NC(C)(C)CO4)cc23)ccc1Oc1ccn2ncnc2c1
Tmax (CYP2C8; human, plasma; oral, 300 mg single dose, day 1, median): 1 h

COC[C@@H](c1ccc(C(F)(F)F)cc1)N1CCN(C2(C)CCN(C(=O)c3c(C)ncnc3C)CC2)C[C@@H]1C
Cmax breakpoint for response (HIV-1; viral load; HIV-infected patients; week 2): 72.4 ng/mL

CC[C@H](CO)N(CCN(N=O)[C@H](CC)CO)N=O
revertant colonies per plate (Salmonella typhimurium; plate incorporation; TA1535, water; 1500 µg/plate, without S9 test 2): 26.7 ± 5

Nc1ccn([C@H]2CC[C@@H](CO)O2)c(=O)n1
selectivity index (HIV-1; MTT; MT4, RT A98G/V106I/V179D/Y181C/G333E mutant; relative to: CC50 over EC50): > 265

Cc1cc(Nc2ccc(S(F)(F)(F)(F)F)cc2)n2nc(C(C)(F)F)nc2n1
patients with QTcF increase (Plasmodium vivax; 12-lead ECG; malaria patients; oral, 600 mg, increase above 30 ms): 0%

CNC(=O)c1ccc(-c2cnc3ncc(Cc4ccc5ncccc5c4)n3n2)cc1F
patients with adverse event (measured: Ascites, all grades; cancer patients; oral, 600 mg twice daily, expansion cohort, any causality): 13%

CC[C@H](C)[C@H](NC(=O)[C@H](Cc1ccc(O)cc1)NC(=O)[C@@H](NC(=O)[C@@H](N)CCCN=C(N)N)C(C)C)C(=O)N[C@@H](Cc1c[nH]cn1)C(=O)N1CCC[C@H]1C(=O)N[C@@H](Cc1ccccc1)C(=O)O
proteolytic conversion (trypsin; LC-MS; 20 µM, 120 min, pH 7.4, 25 °C): 99.9 ± 0.2%

CC[C@H]1[C@@H](O)[C@@H]2[C@H](CC[C@]3(C)[C@@H]([C@H](C)CCNC(=O)NS(=O)(=O)c4ccc(C(C)(C)C)cc4)CC[C@@H]23)[C@@]2(C)CC[C@@H](O)C[C@@H]12
AUC(0-inf) geometric mean (Cytochrome P450 3A4 (CYP3A4, Homo sapiens, UniProt P08684); substrate; human, plasma; 10 mg, alone, study day 1): 360 ng·h/mL

Some of these lines once more:
CCOc1cc(CC(=O)N[C@@H](CC(C)C)c2ccccc2N2CCCCC2)ccc1C(=O)O
geometric mean CL/F (CYP2C8; substrate; human, plasma; 0.5 mg, day 1): 45 L/h

O=C(CCl)Nc1ccc(OS(=O)(=O)C2CC3OC2C(c2ccc(O)cc2)=C3c2ccc(O)cc2)cc1 (centres unmarked)
IC50 (MCF-10A; cell viability; 72 (unit not given)): 15.3 ± 1.93 µM
